Experimental data collected from several papers.
Protocols differ between the studies behind these lines. Values joined by “and” are separate records of one study, mostly repeats; a detail may differ. ± marks the error that the study gave. Values after ≈ are worked out from the molar mass of the structure shown.

| SMILES | organism | assay | system | conditions | scale | measurement | result |
| --- | --- | --- | --- | --- | --- | --- | --- |
| CC[C@H](C)[C@H](NC(=O)[C@H](CCCCN)NC(=O)[C@H](CCCCN)NC(=O)[C@H](CC(C)C)NC(=O)[C@H](Cc1c[nH]c2ccccc12)NC(=O)CN)C(=O)NCC(=O)N[C@@H](CCCCN)C(=O)N[C@@H](CCCCN)C(=O)N[C@H](C(=O)N[C@@H](CCC(=O)O)C(=O)N[C@@H](CCCNC(=N)N)C(=O)N[C@H](C(=O)NCC(=O)N[C@@H](CCC(N)=O)C(=O)N[C@@H](Cc1c[nH]cn1)C(=O)N[C@H](C(=O)N[C@@H](CCCNC(=N)N)C(=O)N[C@@H](CC(=O)O)C(=O)N[C@@H](C)C(=O)N[C@H](C(=O)N[C@H](C(=O)N[C@@H](CCC(N)=O)C(=O)N[C@H](C(=O)N[C@H](C(=O)NCC(=O)N[C@H](C(=O)N[C@@H](C)C(=O)N[C@@H](CCC(N)=O)C(=O)N[C@@H](CCC(N)=O)C(=O)N[C@@H](C)C(=O)N[C@@H](C)C(=O)N[C@@H](CC(N)=O)C(=O)N[C@H](C(=O)N[C@@H](C)C(=O)N[C@@H](C)C(=O)N[C@H](C(=O)N[C@@H](CC(C)C)C(=O)N[C@@H](CCCCN)C(N)=O)[C@@H](C)O)C(C)C)C(C)C)[C@@H](C)CC)[C@@H](C)O)[C@@H](C)CC)[C@@H](C)O)[C@@H](C)O)C(C)C)[C@@H](C)CC | Staphylococcus epidermidis | – | ATCC 35984, CAMHB | – | – | MIC | > 1020 µg/mL |
| N#Cc1ncn(C2OC(CO)C(O)C2O)c1C#N (stereo not drawn) | Mammarenavirus lassaense | viral replication | Vero | 48 h | – | IC90 | > 50 µg/mL |
| NS(=O)(=O)c1cccc2c1C(=O)c1cccc(O)c1C2=O | SARS-CoV-2 USA_WA1/2020 | – | Vero E6 | concentration not given, 72 h | – | inhibition of cytopathic effect | 0% |
| O=[N+]([O-])c1ccc(-n2nc(-c3ccccc3)cc2-c2ccc(F)cc2)c([N+](=O)[O-])c1 | Japanese encephalitis virus | western blot | Neuro2a | 15 µM, 72 h, co-treatment | – | NS1 protein reduction | ~60% |
| Cn1cnc(Cn2c(=O)[nH]/c(=N\c3cc4cn(C)nc4cc3Cl)n(Cc3cc(F)c(F)cc3F)c2=O)n1 | feline infectious peritonitis virus | viral replication, qRT-PCR | CRFK | 48 h | – | IC50 | 47.8 µM |
| O=S(=O)(O)c1c2ccccc2c(-c2c3nc(c(-c4c5ccccc5c(S(=O)(=O)O)c5ccccc45)c4ccc([nH]4)c(-c4c5ccccc5c(S(=O)(=O)O)c5ccccc45)c4nc(c(-c5c6ccccc6c(S(=O)(=O)O)c6ccccc56)c5ccc2[nH]5)C=C4)C=C3)c2ccccc12 | vaccinia virus | viral replication | WR | 50 µg/mL, 16 h | – | inhibition | 67 ± 15% |
| O=C(O)c1ncn(COCCOCc2ccccc2)c1C(=O)O | Severe acute respiratory syndrome coronavirus | viral replication | Vero | 48 h | – | IC50 | 49 µg/mL |
| CC(C)CC(C(=O)N1CC2(CC1C#N)C(=O)Nc1ccccc12)N(C)C(=O)c1cc2c(F)cc(F)c(F)c2[nH]1 (stereo not drawn) | SARS-CoV-2 | viral replication, infectious virus | Vero E6 | 0.333 µM | – | inhibition | 97% |
| COC(=O)[C@]1(C)CCC[C@]2(C)[C@H]3C[C@H]4C(C(C)C)=C[C@]3(CC[C@H]21)[C@H]1[C@@H]4[C@@H](OCC#CCN2CCCC2)CC[C@@H]1O | SARS-CoV-2 pseudovirus | – | BHK-21-hACE2 | 20 µM | – | infected cells | decreased |
| C[N+]1=C2C(c3ccc(Cl)cc3)=[N+]([O-])c3ccccc3N2CCC1 | Clostridium perfringens | – | – | – | – | MIC90 | 32 µg/mL |
| CN1CCN(C(=O)N[C@@H](Cc2ccccc2)C(=O)N[C@H](/C=C/S(=O)(=O)c2ccccc2)CCc2ccccc2)CC1 | Severe acute respiratory syndrome coronavirus | cytopathic effect, inhibitor | Vero 76 | – | – | IC50 | < 0.05 µM |
| COC(=O)c1ccccc1NC(=O)Cc1cn(OC)c2ccccc12 | HIV-1 | viral replication | RT K103N/G190A | – | baseline: wild type | EC50 fold change | 3.19 ± 0.4 fold |
| Cc1ccc(NS(=O)(=O)c2c(C(=O)N3CCCCCC3)c(C)n(C)c2C)c(Cl)c1 | Vaccinia virus | viral infection | HaCaT | 100 µM, 36 h | baseline: untreated | infection | 0.745% and 0.651% and 0.494% |
| CCOP(=O)(COCCn1cnc(C#N)c1C#N)OCC | Mammarenavirus lassaense | viral replication | Vero | 48 h | – | IC90 | 43 µg/mL (≈ 138 µM) |
| COc1ccc(C2=[N+]([O-])c3ccccc3N3CCCN=C23)cc1 | Clostridium perfringens | – | – | – | – | MIC | 4 to 64 µg/mL (≈ 13 to 208 µM) |
| Cc1ccc(N2CC(N3CCC(C)(O)CC3)C2)cc1C(=O)NC1(c2ccc3c4c(cccc24)CC3)CC1 | SARS-CoV-2 | viral replication | Vero C1008, wild type | 0.005716 µM | – | inhibition | 0% |
| C[N+]1=C2C(c3ccc([N+](=O)[O-])cc3)=[N+]([O-])c3ccccc3N2CCC1 | Clostridium perfringens | – | – | – | – | MIC | 0.125 to 2 µg/mL |
| O=c1ccn(C2OC(F)(CO)C(O)C2O)c(=O)[nH]1 (stereo not drawn) | Lassa mammarenavirus | viral replication | Huh-7 | concentration not given | – | Emax | 99.4 ± 0.18% |
| O=C(C=Cc1ccc(O)c(O)c1)OC1CC(O)(C(=O)O)CC(OC(=O)C=Cc2ccc(O)c(O)c2)C1O (stereo not drawn) | Severe acute respiratory syndrome coronavirus 2 | cytopathic effect, inhibitor | Vero C1008 | 1.562 µM | – | inhibition | 0% |
| N#Cc1ncn(COCCBr)c1C#N | Mammarenavirus lassaense | viral replication, inhibitor | Vero | 48 h | – | IC50 | 5 µg/mL |
| Nc1nc(Nc2ccc(Cl)cc2)nn1S(=O)(=O)c1ccc2ccccc2c1 | Venezuelan equine encephalitis virus | viral replication | Vero 76, TC-83 | – | – | EC50 | > 25 µM |

Some of these lines once more:
| SMILES | organism | assay | system | conditions | scale | measurement | result |
| --- | --- | --- | --- | --- | --- | --- | --- |
| Cc1ccc(N2CC(N3CCC(C)(O)CC3)C2)cc1C(=O)NC1(c2ccc3c4c(cccc24)CC3)CC1 | SARS-CoV-2 | viral replication | Vero C1008, wild type | 0.005716 µM | – | inhibition | 0% |
| C[N+]1=C2C(c3ccc([N+](=O)[O-])cc3)=[N+]([O-])c3ccccc3N2CCC1 | Clostridium perfringens | – | – | – | – | MIC | 0.125 to 2 µg/mL |
| O=c1ccn(C2OC(F)(CO)C(O)C2O)c(=O)[nH]1 (stereo not drawn) | Lassa mammarenavirus | viral replication | Huh-7 | concentration not given | – | Emax | 99.4 ± 0.18% |
